Assay results of several laboratories.
Compare with care: the assays were run in different laboratories. ± marks the error that the study gave.
Cell line: MRC5

Compound	test	system	setting	quantity	result
CC(C)=CCc1c(OCC2OC2(C)C)ccc2ccc(=O)oc12 (stereo not drawn)	cell growth or viability, MTT	–	24 h	IC50	> 100 µM
N=C(N)NCCC[C@@H]1NC(=O)[C@H](CCCNC(=N)N)NC(=O)[C@@H](CCCNC(=N)N)NC(=O)[C@H](C(c2ccccc2)c2ccccc2)NC(=O)[C@H](C(c2ccccc2)c2ccccc2)NC(=O)[C@H](C(c2ccccc2)c2ccccc2)NC(=O)[C@H](CCCNC(=N)N)NC1=O	cell growth or viability, MTS	–	150 µg/mL, 24 h	viability	61 to 70%
CC(C)C(=O)Cc1c(OCC(O)C(C)(C)O)ccc2ccc(=O)oc12 (stereo not drawn)	cell growth or viability, MTT	–	24 h	IC50	> 100 µM
CN1CCCN(c2cnc3c(cc(C(=O)NCc4ccc(Cl)cc4)c(=O)n3CC(=O)N3CC(C)(F)C3)n2)C1=O	cell growth or viability, CCK-8	–	–	CC50	> 40 µM
O=C1C(Cl)=C(Cl)C(=O)c2c(O)ccc(O)c21	cytotoxicity, MTT	RPMI-1640 with 10% FBS	48 h	IC50	10.4 ± 0.45 µM
CC1(F)CN(C(=O)Cn2c(=O)c(C(=O)NCc3ccc(Cl)cc3)cc3nc(N4CCN(CCN)C4=O)cnc32)C1	cell growth or viability	–	–	CC50	> 40 µM
N=C(N)NCCC[C@@H]1NC(=O)[C@H](CCCNC(=N)N)NC(=O)[C@@H](CCCNC(=N)N)NC(=O)[C@@H](CCCNC(=N)N)NC(=O)[C@@H](C(c2ccccc2)c2ccccc2)NC(=O)[C@H](Cc2c[nH]c3ccccc23)NC(=O)[C@@H](C(c2ccccc2)c2ccccc2)NC1=O	cell growth or viability, MTS	–	100 µg/mL, 24 h	viability	> 90%
CC(=O)N(C)CCN1CCN(c2cnc3c(cc(C(=O)NCc4ccc(Cl)cc4)c(=O)n3CC(=O)N3CC(C)(F)C3)n2)C1=O	cell growth or viability, CCK-8	–	40 µM	viability	99%
Cc1cccnc1-c1csc(C(=O)Nc2cc(Cl)cc(NS(C)(=O)=O)c2)c1	cell growth or viability, ATP luminescence	–	10 days	CC50	3.25 µM

Repeated from above:
Compound	test	system	setting	quantity	result
O=C1C(Cl)=C(Cl)C(=O)c2c(O)ccc(O)c21	cytotoxicity, MTT	RPMI-1640 with 10% FBS	48 h	IC50	10.4 ± 0.45 µM
